Assay results gathered from unrelated publications.
A part holds a random share of what one study measured.

Set 1 — technique: RNA Bind-n-Seq; molecule type: RNA; matrix: in vitro; concentration: 200 nM; notes: whole 134-nt RNA, ends assumed; with: 150 mM LiCl; reference: input library; reading: higher = stronger binding; each molecule: 7-deaza-guanosine replaces G
Target: Ras GTPase-activating protein-binding protein 1, full length (G3BP1, Homo sapiens, UniProt Q13283)
Chain of UniProt Q13283 (whole entry, looked up): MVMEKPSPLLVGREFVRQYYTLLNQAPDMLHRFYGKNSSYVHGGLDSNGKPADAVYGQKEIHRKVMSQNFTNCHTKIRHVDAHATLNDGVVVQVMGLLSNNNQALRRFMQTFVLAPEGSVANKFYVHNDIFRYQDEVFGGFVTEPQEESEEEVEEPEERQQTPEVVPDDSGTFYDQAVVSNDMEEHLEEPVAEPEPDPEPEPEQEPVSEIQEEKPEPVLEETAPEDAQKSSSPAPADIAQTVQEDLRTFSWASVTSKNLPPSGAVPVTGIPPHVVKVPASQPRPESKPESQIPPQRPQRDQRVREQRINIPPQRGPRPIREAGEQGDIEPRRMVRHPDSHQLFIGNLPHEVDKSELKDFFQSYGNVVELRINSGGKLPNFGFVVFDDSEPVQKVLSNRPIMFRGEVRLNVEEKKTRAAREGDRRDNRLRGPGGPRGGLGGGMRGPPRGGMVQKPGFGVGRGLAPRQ
Strand | log2 enrichment
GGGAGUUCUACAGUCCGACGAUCCCUGUGCUACACAUCGUAUGUACCGAAUCGGGGAAAAAAAGGGGAAAAAAAGGGGUGGGGAAAGUAUUAUGUUACGCCGUUCGGAUCUGCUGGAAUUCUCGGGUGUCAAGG | 0.811
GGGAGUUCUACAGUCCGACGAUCCCUCAAGUCCUGUGCUACACAUCGUAUGUACCGAAUCGGGUUGGUUGGUUGGGAAAGUAUUAUGUUACGCCGUUCGGAUCUGCACUUCCAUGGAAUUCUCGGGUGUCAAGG | 0.387
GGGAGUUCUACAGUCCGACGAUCAGUCCUGUGCUACACAUCGUAUGUACCGAAUCGGUUUUUGGGGUUUUUGGGUUUUUGGAAAGUAUUAUGUUACGCCGUUCGGAUCUGCACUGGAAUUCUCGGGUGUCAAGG | 0.188
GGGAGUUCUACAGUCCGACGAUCAGUCCUGUGCUACACAUCGUAUGUACCGAAUCGGAAAAAGGGAAAAAGGGAAAAAGGAAAGUAUUAUGUUACGCCGUUCGGAUCUGCACUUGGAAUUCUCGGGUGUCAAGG | -1.04
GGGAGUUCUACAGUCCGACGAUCCUCAAGUCCUGUGCUACACAUCGUAUGUACCGAAUCGGGCCGGGCCGGGGCCGGAAAGUAUUAUGUUACGCCGUUCGGAUCUGCACUUCCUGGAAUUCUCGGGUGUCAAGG | 0.571
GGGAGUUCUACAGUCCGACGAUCUCCUGUGCUACACAUCGUAUGUACCGAAUCGGGGUUUUUGGGUUUUUGGGGUUUUUGGGGAAAGUAUUAUGUUACGCCGUUCGGAUCUGCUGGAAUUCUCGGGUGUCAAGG | -0.0334
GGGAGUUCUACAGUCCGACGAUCACCAUGCAGGUGGGCAUCUUUGUGAAGUGGGGCAAGGGGGGGAUAGGGAGGGGGGUAACACUUUGGGAACAGGUGGUCCCAGGUCGUUUCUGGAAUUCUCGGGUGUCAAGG | 0.247
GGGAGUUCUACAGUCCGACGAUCGGGGAGGUGGAUUUUGUUUAUUUUUUUAGCUCAUUUCCAGGGGUGGGAAUUUUUUUUUAAUAUGUGUCAUGAAUAAAGUUGUUUUUGAAAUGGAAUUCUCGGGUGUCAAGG | 0.49

Set 2 — technique: protein-binding microarray; molecule type: double-stranded DNA, one strand shown; matrix: in vitro; concentration: 940 nM top; notes: 60-bp whole probe; with: salmon DNA 0.4 mg/ml; reference: random background probes; reading: higher = stronger binding; constant ends, left off below: GCCTAGCAC … GTCTTGATTCGCTTGACGCTGCTG
Target: Interferon regulatory factor 5, full length, phosphomimetic (IRF5, Homo sapiens, UniProt Q13568-2, residues 1-514, S451D/S453D/S456D/S462D)
Strand | fitted relative affinity
ACGTCTTCATGTTTTTTTCTGTGCTAG | 1.07 z-score
TCAGGTTTTCTAATGTTACTGTGCTAG | 0.618 z-score
GACGGACTGGGTATCGGGAGGTGCTAG | 0.726 z-score
GACGGTATCGGTTTCGGGTCGTGCTAG | 11.9 z-score
TTAGGTCTTCTTCTCCTTTAGTGCTAG | 0.769 z-score
GATGGTATCCTTTTCCTGACGTGCTAG | 0.901 z-score
TTATGACTGCTTATCCTTTAGTGCTAG | 0.137 z-score
GACGATTTCAGTTCCGTGACGTGCTAG | 0.863 z-score
GACGAACTGGTGACTGGAGACGTGCTA | -0.359 z-score
TTAGATCTCAGTCTCGTTTAGTGCTAG | 2.04 z-score
TTTGATTTCAGACTGGATTAGTGCTAG | -0.203 z-score
GACGAACTGAGACTAGAGACGTGCTAG | -0.342 z-score
GGTCAGTCAGGTCACTTCTGGTGCTAG | -0.274 z-score
CAGAATCCAGCTCAGGTTGTGTGCTAG | -1.01 z-score
GAGGGTTTCCTTATCCTGACGTGCTAG | 0.954 z-score
CACGGTATCCTTCTCCTGACGTGCTAG | 0.167 z-score
TTAGGACTGCGTATCCTTTAGTGCTAG | -0.264 z-score

Set 3 — technique: RNA Bind-n-Seq; molecule type: RNA; matrix: in vitro; concentration: not given; reference: input RNA pool; reading: higher = stronger binding
Target: RING finger protein unkempt homolog, zinc fingers 1-6, GST-SBP tag (UNK, Homo sapiens, UniProt Q9C0B0, residues 30-357)
Notes: RNA with constant flanks, human and mouse sites, ends assumed
Target sequence (chain): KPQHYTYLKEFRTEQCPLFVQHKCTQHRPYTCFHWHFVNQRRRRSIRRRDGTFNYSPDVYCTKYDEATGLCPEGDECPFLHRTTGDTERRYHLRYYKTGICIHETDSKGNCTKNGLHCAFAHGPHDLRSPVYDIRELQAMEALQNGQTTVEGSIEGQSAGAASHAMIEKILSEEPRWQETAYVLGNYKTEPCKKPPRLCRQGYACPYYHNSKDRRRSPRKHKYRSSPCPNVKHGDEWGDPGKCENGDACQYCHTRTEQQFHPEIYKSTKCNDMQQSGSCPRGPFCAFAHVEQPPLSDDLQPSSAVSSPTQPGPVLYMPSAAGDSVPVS
Strand | bound/input enrichment
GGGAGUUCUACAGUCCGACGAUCUUAAUGUGCAUUAUUAAAAAUAUUGAGUGAAGCUAAUUGUCAACUUUAUUAAGGAUUACUUUGUCUGCCCACCACCUAGUGUAAAAUAAAAUCAAGUAAUACAAUCUUAACUGUUGUGGCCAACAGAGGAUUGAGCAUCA | 6.37 ratio
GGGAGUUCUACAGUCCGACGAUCCCACUUCCAGGACCUAACCCCAUCUUGCCAGGGCGAGGCGGCCCCAAUGACAGAUUUCCCUUUAGACCCAGCAGGGGUCGGCCAACUGAUGGCCGGCUGUCAUUCAUGUGAUUGAUUUGUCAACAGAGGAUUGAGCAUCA | 0.318 ratio
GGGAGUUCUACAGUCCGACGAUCAAGGAUAAUUUCCAGCAGACUCUUGUAAAUCGUGAUGGUGCCAAAAAAUUUCCCAAAUCAGUUAAAAAGGAAGAUCUUGAAAGUCAAAAUCAAAGGAAAUUUUGGAAAAAGAAGAUGGUUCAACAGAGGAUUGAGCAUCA | 0.261 ratio
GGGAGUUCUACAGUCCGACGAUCGAAAACGGACGAUGUAUUACUAAGCUGGAAAACAUGGGGUUUCGAGUGGGACAAGGAUUGAUAGAAAGGUUUACAAAAGAUACUGCAAGGUUCAAGGAUGAGUUAGAUAUCAUGAAGUUCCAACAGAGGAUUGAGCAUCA | 0.697 ratio
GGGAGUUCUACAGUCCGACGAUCGGCACAUGGGAAGAGAAAUCAGAUGAAAUUUCCUUUGCUGACUUCAAGUUCUCAGUCACUCAUCAUUAUCUUGUACAAGAGUCCACUGAUAAAGAAGGAAAGGAUGAGUUAUUAGAGGAUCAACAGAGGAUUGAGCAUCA | 0.378 ratio
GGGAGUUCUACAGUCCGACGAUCAUCACCACCAAGGCUGAUAUCUGGGCCUUGGGAUGUUUACUGUAUAAACUUUGUUUCUUCACUCUUCCUUUUGGUGAGAGUCAGGUUGCUAUCUGUGAUGGCAGCUUCACCAUCCCAGACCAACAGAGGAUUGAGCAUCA | 0.0702 ratio
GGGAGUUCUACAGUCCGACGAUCGAUACAUACUUAUUUGUGAAUCAUAUCCCUGUAAGUAAGACAAGAAACACUUCCUCAUUCUAGGUACAUAAUACACCAGCUUUAGCUUGUACCGAUUUGUGAGGUGUUAAGAUUUUGAGGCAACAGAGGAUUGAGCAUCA | 0.393 ratio
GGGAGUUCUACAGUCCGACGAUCGCCAUAAUCCCCUACAUCCCUACUCUCAUCACUCAGCUUACACAGAAGCUAUUAGCUGUUAGUAAGAACCCAAGCAAACCUCACUUUAAUCACUACAUGUUUGAAGCAAUAUGUUUAUCCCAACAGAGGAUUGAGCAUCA | 0.655 ratio

Set 4 — technique: RNA Bind-n-Seq; molecule type: RNA; matrix: in vitro; concentration: 365 nM; reference: no-protein control; reading: higher = stronger binding
Target: RNA binding protein fox-1 homolog 2, RRM domain, GST-SBP tag (RBFOX2, Homo sapiens, UniProt O43251-10, residues 100-194)
Notes: natural RNA segment, single round, ends assumed
Construct (chain): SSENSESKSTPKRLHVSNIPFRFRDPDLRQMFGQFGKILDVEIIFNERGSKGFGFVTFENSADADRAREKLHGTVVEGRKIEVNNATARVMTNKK
Strand | RBNS enrichment (R)
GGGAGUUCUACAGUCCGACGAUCGAGAGGCCAGAGGAUGCUCCCCAUGCUGCCACUAUUUAUUGUGAGCCCUGGAGGCUCCCAUGUGCUUGAGGAAGGCUGGUGAGCCCGGCUCAGGACCCUCUUCCCUCAGGUGGAAUUCUCGGGUGCCAA | 0.254
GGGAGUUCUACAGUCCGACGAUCGAGGGCCGGGGGAAGACCCACUGAGCUGGGCAGGACACAGGCGAGCUCAGGUGAUGCCGGCCACCAGCAAUGCCUGGCCUGGUAGCUCCGCUUCUGCUUUCACCAAGAGAUGGAAUUCUCGGGUGCCAA | 0.987
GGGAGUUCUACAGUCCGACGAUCCAAUGAACUAAAUCAGUGGCAUUCUCUAGAUAAUGUGGGGGAAGGUUAGAAUAUUUUCUGGCCUUCUAUGGGGUAGCAACCCAGAAUCAAUCUGAAUUAGUCCUGUUUUGUGGAAUUCUCGGGUGCCAA | 0.373
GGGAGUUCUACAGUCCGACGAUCCUGGACCUCCAGCUGGGAGGUCAUCCUCCCUCUAGCUUGUAUGUCCUGUACUUUGCAACCCCUAAGCUUCAAACCUCUUGCUCAAGACCCAAGACUUAUUCAAAGCUGUGUGGAAUUCUCGGGUGCCAA | 1.15
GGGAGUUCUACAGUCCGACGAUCUGGAGGAAAAAGCACCCGUUGAGAACAAACAGACCUCAAUAAACAAGAAUAAUCAUGUGACCAUGGACUCUGCUUCCGCACCUUCUGUUCUUGGUUUCCCAUCUGUGGUCUGGAAUUCUCGGGUGCCAA | 0.389
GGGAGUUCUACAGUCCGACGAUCCCCCGAGAAUUCCUCUUCUGGAUCCCAGUUUGCAGCAAACCCCACACCCCAGCUCACACAGCAAAAACAAUGGACAGGCCCAGAGGCUGAAGCAAACAGUGUCCCUUCUGUGGAAUUCUCGGGUGCCAA | 0.454
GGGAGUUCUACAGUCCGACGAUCUACAGCCUCUGGCGAGGGCUCUGUGGAGAUUUUAAUUUUAGAAGGGGGCAUGAUGGCAGUGUUUCUCUUUUAGGACAACACCCACGGAACACUCAAAGGCUGUGUGACUUUGGAAUUCUCGGGUGCCAA | 0.574
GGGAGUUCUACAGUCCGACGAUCAAAAGUUUUUGACUGGAAAUACACUGUUUUGCAUCAAGCUGGAGUACUGGAUGGAAAACUCUACAAUAACAUUUUGUGCAUAAUUGUAGAAAUACAGAUUUUGUUGUUAUUGGAAUUCUCGGGUGCCAA | 0.843
